Assay results pooled from the literature.
Compare with care: the assays were run in different laboratories. Several values in a cell are separate wells, animals, samples, runs or records. Numbers after ± are the reported error.

Compound | assay | test system | setting | how to read | quantity | result
OCc1cn(Cc2ccc(-c3noc(-c4ccc(OCC[18F])c(C(F)(F)F)c4)n3)cc2)nn1 | – | Lewis rats, female, cortex | intravenous, 5 min | – | brain uptake | 0.59 %ID/g
CC[C@H](C)[C@H](NC(=O)[C@H](N)Cc1ccc(O)cc1)C(=O)N[C@H]1CSSC[C@@H](C(=O)N(C)[C@H](C(N)=O)[C@@H](C)CC)NC(=O)[C@H](CCCNC(=N)N)NC(=O)[C@H](Cc2c[nH]cn2)NC(=O)[C@H](C)NC(=O)CN(C)C(=O)[C@H](Cc2c[nH]c3ccccc23)NC(=O)[C@H](CC(=O)O)NC(=O)[C@H](CCC(N)=O)NC(=O)[C@H](Cc2cn(C)c3ccccc23)NC(=O)[C@H](C(C)C)NC1=O | UPLC-ESI-MS | cynomolgus monkey plasma | 0.36 µg/mL, 48 h, 25 °C, bench-top after SPE | – | recovery | 99.5 ± 0.3%
C=C[C@@H]1C[C@]1(NC(=O)[C@@H]1C[C@@H](Oc2cc(-c3ccccc3)nc3cc(OC)ccc23)CN1C(=O)[C@@H](NC(=O)OC(C)(C)C)C(C)(C)C)C(=O)NS(=O)(=O)C1CC1 | – | rat, liver and plasma | 8 h | relative to: liver over plasma | liver to plasma ratio | 150 fold
CC(C)c1cnc(-c2cc(Cl)ccc2F)cc1Nc1ccncc1C(=O)NC(CO)CO | measured: hepatic haemorrhage | human patients | oral, dose not given, grade 2 | – | patients with related SAE | 0%
Cc1ccc2oc(-c3c4c(N)n[nH]c(=O)c4nn3-c3ccc(NC(=O)/C=C/CN(C)C)cc3)c(C)c2c1 | – | mouse, plasma | intravenous, 1 mg/kg | – | AUC(0-inf) | 321 ng·h/mL
COC(=O)C(c1ccccc1Cl)N1CCC(SCC(=O)c2cccc(OC)c2)C(=CC(=O)O)C1 (mixture of isomers) | – | feline plasma | -80 °C | – | storage stability time | 9 months
COCCOCCOCCOCCOCCOCCOCCOCCC(=O)NCCCc1cc2cc3nc(cc4[nH]c(cc5nc(c(OC)c1[nH]2)C(=O)C5(C)C)cc4CCc1ccc(C(=O)O)cc1)CC3(C)C | – | DMF | room temperature | – | singlet excited-state lifetime | 3.03 ns and 3 ns
CCN(CC)c1ccc2c(-c3ccccc3C(=O)OCCOCCOCC[18F])c3ccc(=[N+](CC)CC)cc-3oc2c1 | – | rat, lung | 60 min | – | tissue uptake | 0.56 ± 0.05 %ID/g
C=CC(=O)Nc1cc(Nc2nccc(-c3cn(C4CC4)c4ccccc34)n2)c(OC)cc1NC | radio-HPLC | human male, feces | oral, 110 mg, 96 to 240 h, sample holds 16.61% dose | relative to: dose | excreted amount | 0.22%
COc1cccc(C=NCCCN(C)CCN(C)CCCN=Cc2cccc(OC)c2[O-])c1[O-].[67Ga+3] | – | rat | intravenous, 1 min | relative to: heart over liver | tissue uptake ratio | 1.8 ± 0.4
COc1ccnc(C[S+]([O-])c2nc3cc(-n4cccc4)ccc3[nH]2)c1C (stereo not drawn) | – | male Sprague Dawley rats, plasma | oral, 5 mg/kg ilaprazole racemate | relative to: compound over R-ilaprazole | AUC(0-t) ratio | 1.95
O=C(O)c1cccc(S(=O)(=O)Nc2ccccc2)c1 | – | human, moderate liver dysfunction, plasma | intravenous, 400 mg/m^2 belinostat, cycle 1 day -7, geometric mean | relative to: metabolite over belinostat | AUC(0-inf) metabolic ratio | 0.916
COC(=O)c1ccc2c(c1)NC(=O)/C2=C(\Nc1ccc2c(c1)CCN2C(=O)CN1CCOCC1)c1ccccc1 | – | beagle dog, blood | intravenous, 2 mg/kg | – | clearance | 37.2 mL/min/kg
Cc1ccc(-c2ccc(-c3cc4sccc4o3)cn2)nc1 | TCSPC | water, HEPES 100 mM | pH 7.4, zinc complex | – | radiative decay rate constant | 0.13 ns⁻¹
NC[C@@H](C(=O)Nc1ccc(-c2cn[nH]c2)cc1)c1ccccc1 | OECD 405 eye irritation | New Zealand White rabbit, eye | topical, 0.1%, 24 h (day 2), scale 0 to 4 | direction not given | chemosis score | 0
Cc1cc2c(cc1C1(c3ncc(C(=O)O)cn3)CC1)C(C)(C)CCC2(C)C | – | Sprague-Dawley rat, male | oral, 100 mg/kg, 6 h, sesame oil vehicle | – | blood cholesterol | 75 ± 4.7 mg/dL
CN(C(=O)Cn1c(=O)oc2ccc(-c3ccc(OCC[18F])cc3)cc21)c1ccccc1 | – | ischemic Sprague-Dawley rats, plasma | intravenous, 10 MBq radiolabelled, 60 min | – | intact parent fraction | 3.9 ± 1.1%

Compound | assay | test system | setting | how to read | quantity | result
CC(C)(O)c1ncc([S@](N)(=O)=NC(=O)Nc2c3c(cc4c2CCC4)CCC3)s1 | – | healthy human | oral, 10 mg once daily, day 1, capsule formulation, geometric mean | – | Cmax | 992 ng/mL
O=C1OC2(c3ccccc31)c1cc(I)c(O)c(I)c1Oc1c2cc(I)c(O)c1I | – | female C57BL/6 mouse, plasma | intraperitoneal, 50 mg/kg | – | CL/F | 16.7 mL/min/kg
O=C([O][Ti+2][O]C(=O)c1ccc(P(c2ccccc2)c2ccccc2)cc1)c1ccc(P(c2ccccc2)c2ccccc2)cc1.[Cl][Au].[Cl][Au].c1cc[cH-]c1.c1cc[cH-]c1 | ICP-MS, measured: gold | NOD.CB17-Prkdc scid/J mice, blood or plasma | 7.5 mg/kg, after first injection | – | absorption half-life | 36 min
CC(C)(C)NCC(SS(=O)(=O)O)c1ccccc1 (stereo not drawn) | – | Swiss Webster mouse, female, hepatocytes | 750 µM, 30 min, pH 7.4, expected value | – | metabolised fraction | ~100%
CN[C@@H]1[C@H](O)[C@H](NC)[C@H]2O[C@]3(O)[C@H](O[C@@H]2[C@H]1O)O[C@H](C)C[C@@]3(O)CNCCC1CCOCC1 | – | male BALB/c mouse, plasma | intravenous, 10 mg/kg | – | C0 | 38000 to 74000 ng/mL
[11CH3]c1ccc2nc(C3CCC3)n(-c3ccc4[nH]ncc4c3)c2n1 | – | human male, pancreas | – | – | absorbed radiation dose | 3.1 µSv/MBq
COc1cc(NC(C)=O)c2c(c1O)-c1c(OC)c(OC)cc3c1C(C2)N(C)CC3 (stereo not drawn) | – | rat lung homogenate | 100 µg/mL, time not given, three freeze-thaw cycles | – | remaining compound | 98.5 ± 4.2%
O=C(CCc1ccc(CNC(C(=O)OC2CCCC2)C2CCCCC2)cn1)NO (stereo not drawn) | – | human, plasma | oral, 40 mg once daily, day 1, geometric mean | – | AUC(tau) | 160 ng·h/mL
CCCC[C@H](NC(=O)CNC(=O)CNC(=O)CN1CCN(CC(=O)O)CCN(CC(=O)O)CCN(CC(=O)O)CC1)C(=O)N[C@H]1CC(=O)NCCCC[C@@H](C(N)=O)NC(=O)[C@H](Cc2c[nH]c3ccccc23)NC(=O)[C@H](CCCNC(=N)N)NC(=O)[C@@H](Cc2ccccc2)NC(=O)[C@H](Cc2c[nH]cn2)NC1=O [gallium-67 labelled] | – | C57 mice, B16/F1 melanoma | 0.5 h | – | tumour to skin uptake ratio | 5.08
C[N+]1(CC(=O)OC2CCCCCCCCCCC2)CCCCC1 | – | mouse, plasma | intraperitoneal, 5 mg/kg, single dose | – | clearance | 0.07 L/h
O=c1nc(NO)ccn1[C@@H]1O[C@H](CO)[C@@H](O)[C@H]1O | western blot, measured: CYP2C11 | rats, CFA-induced arthritis, liver | oral, 80 mg/kg twice daily, 5 days | relative to: untreated arthritic rats | protein level | 0.9 fold
CC[C@H](C)[C@H](NC(=O)[C@H](CC(C)C)NC(=O)[C@H](Cc1c[nH]c2ccccc12)NC(=O)[C@H](C)NC(=O)[C@@H](NC(=O)[C@H](Cc1ccccc1)NC(=O)[C@H](CC(=O)O)NC(=O)[C@H](CCCNC(=N)N)NC(=O)[C@H](C)NC(=O)[C@H](C)NC(=O)[C@H](CC(C)C)NC(=O)[C@H](C)NC(=O)[C@H](CC(=O)O)NC(=O)[C@H](CC(C)C)NC(=O)[C@@H](NC(=O)[C@@H](NC(=O)[C@H](C)NC(=O)[C@H](CC(C)C)NC(=O)[C@H](CCC(=O)O)NC(=O)[C@H](CO)NC(=O)[C@H](CO)NC(=O)[C@H](Cc1ccccc1)NC(=O)[C@@H](NC(=O)CNC(=O)[C@H](CCC(=O)O)NC(=O)CNC(=O)[C@@H](N)Cc1cnc[nH]1)[C@@H](C)O)[C@@H](C)O)[C@@H](C)CC)[C@@H](C)CC)C(=O)N[C@@H](C)C(=O)N[C@H](C(=O)N[C@@H](CCCCN)C(=O)N[C@H](C(=O)N[C@H](C(=O)N[C@@H](CC(=O)O)C(=O)N[C@@H](CCCCN)C(=O)N[C@@H](CCCCN)C(=O)N[C@@H](CCCCN)C(=O)N[C@@H](CCCCN)C(=O)N[C@@H](CCCCN)C(=O)N[C@@H](CCCCN)C(N)=O)[C@@H](C)O)[C@@H](C)CC)[C@@H](C)O | – | healthy humans, plasma | subcutaneous, 10 mg once weekly, 6 doses, day 36, geometric mean | – | AUC(0-last) | 0.281 µM·h
NCC(=O)N1CCC[C@H]1C(=O)N1C[C@H](O)C[C@H]1C(=O)O | potentiometric titration | – | 40 °C, together with: Fe(III) | – | log beta | 14.2
Cc1ccc(OCC(=O)N(Cc2cccs2)c2ccn[nH]2)cc1 | – | female Sprague-Dawley rat, plasma | intravenous, 1 mg/kg, single dose | – | Tmax | 1.8 min
CCc1cc2c(N3CCN([11C](=O)c4ccc(-c5ccccc5)cc4)CC3)nc(N3CCNC(=O)C3)nc2s1 | PET | Wistar rats, male, brain | intravenous, baseline | – | SUVmax | 0.04
CC(=O)N[C@H](CCCCN)C(=O)N[C@H](CC(C)C)C(=O)N[C@H](CCCCN)C(=O)N[C@H](CO)C(=O)N[C@H](CC(C)C)C(=O)N[C@H](CC(C)C)C(=O)N[C@H](CCCCN)C(=O)N[C@@H](C(=O)N[C@H](CC(C)C)C(=O)N[C@H](CO)C(=O)N[C@H](CCCCN)C(=O)N[C@H](C)C(=O)N[C@H](CCCCN)C(=O)N[C@H](CCCCN)C(=O)N[C@H](CCCCN)C(=O)N[C@H](CC(C)C)C(=O)N[C@H](CC(C)C)C(=O)N[C@H](CCCCN)C(=O)N[C@@H](C(=O)N[C@H](C)C(=O)N[C@H](CC(C)C)C(=O)N[C@H](CCCCN)C(=O)N[C@H](C)C(=O)N[C@H](CC(C)C)C(=O)N[C@H](CO)C(=O)N[C@H](CCCCN)C(N)=O)[C@H](C)O)[C@H](C)O | circular dichroism | 50% trifluoroethanol | 5 °C | – | helical content | 100%

Some of these lines once more:
Compound | assay | test system | setting | how to read | quantity | result
CC[C@H](C)[C@H](NC(=O)[C@H](N)Cc1ccc(O)cc1)C(=O)N[C@H]1CSSC[C@@H](C(=O)N(C)[C@H](C(N)=O)[C@@H](C)CC)NC(=O)[C@H](CCCNC(=N)N)NC(=O)[C@H](Cc2c[nH]cn2)NC(=O)[C@H](C)NC(=O)CN(C)C(=O)[C@H](Cc2c[nH]c3ccccc23)NC(=O)[C@H](CC(=O)O)NC(=O)[C@H](CCC(N)=O)NC(=O)[C@H](Cc2cn(C)c3ccccc23)NC(=O)[C@H](C(C)C)NC1=O | UPLC-ESI-MS | cynomolgus monkey plasma | 0.36 µg/mL, 48 h, 25 °C, bench-top after SPE | – | recovery | 99.5 ± 0.3%
C=C[C@@H]1C[C@]1(NC(=O)[C@@H]1C[C@@H](Oc2cc(-c3ccccc3)nc3cc(OC)ccc23)CN1C(=O)[C@@H](NC(=O)OC(C)(C)C)C(C)(C)C)C(=O)NS(=O)(=O)C1CC1 | – | rat, liver and plasma | 8 h | relative to: liver over plasma | liver to plasma ratio | 150 fold
CC(C)c1cnc(-c2cc(Cl)ccc2F)cc1Nc1ccncc1C(=O)NC(CO)CO | measured: hepatic haemorrhage | human patients | oral, dose not given, grade 2 | – | patients with related SAE | 0%
